Results collected from several papers.
Every numbered part comes from another study and shows a few of its results, in no order.

Block 1
Target: RNA binding protein fox-1 homolog 2, RRM domain, GST-SBP tag (RBFOX2, Homo sapiens, UniProt O43251-10, residues 100-194)
Technique: RNA Bind-n-Seq
Form: RNA
Medium: in vitro
Concentration: 365 nM
Notes: natural RNA segment, single round, ends assumed
Relative to: no-protein control
Reading: higher = stronger binding
Target sequence (chain): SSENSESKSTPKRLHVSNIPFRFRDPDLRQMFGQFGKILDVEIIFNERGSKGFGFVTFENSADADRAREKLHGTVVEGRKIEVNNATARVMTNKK
| Oligonucleotide | RBNS enrichment (R) |
| --- | --- |
| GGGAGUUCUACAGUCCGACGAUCAAGGCUUUGCGGCCUGCGCAGACUAUAUCCUGCUUCAGACUAGAUACAAUUGCCCCUUUUUAUAUAUACACCUCCACAAGACAUGCGUAUUAAACAGAUUGUCUCAUCGUUGGAAUUCUCGGGUGCCAA | 0.304 |
| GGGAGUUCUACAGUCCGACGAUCUCUGAGUAAAGUGUCAGUUGCACAGCUCCGUCCUCUUCUGUCUUGCACUGUGGGUGGCACUAUUUAUUCCUGUGCGUCAUCUGGAAGCCUCACGGAUACAUCCAGCUAUGUGGAAUUCUCGGGUGCCAA | 0.485 |
| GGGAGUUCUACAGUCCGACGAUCUUUAAUAUAGAAAAUAAUUAUGGAGUUAGGAAUCUCAUGGCUACAUUUACAUUUUUAGGUUAUUACAGAAAAUUCUCUUAAUUUAUUAUAGUCAAGUGUAUUAUGUAAUCUGGAAUUCUCGGGUGCCAA | 0.614 |
| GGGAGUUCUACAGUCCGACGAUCCAAAUUGACGUGGAUUCAUGCCACAUGGAAAUCUUUAAUUUAUUUGUUGAGGUACCAUAUAGCCAGGGUGCUAGGUGAUGAGUGGUGUUAGCAUGUGCAAUAGGAACUACUGGAAUUCUCGGGUGCCAA | 5.35 |
| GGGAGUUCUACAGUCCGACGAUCAUCCCUUCAAGCUGGUUGAAGAGAGUAGGCAGGGGCGGGGCCCCGAGGUGCUUCAACCCCACCUACUCUGCCUUCCACCUCUCCCCAACCAUCACUGUAAUUUAUGGCCCUGGAAUUCUCGGGUGCCAA | 0.358 |
| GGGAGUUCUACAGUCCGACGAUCGCACAUGUAGAAACCUGUAGACUUUGGUUACUGCUAUAUUCCCCUUGAGAUCCUUGCUGGAUGCCGACCAGGAUUUCAUGUGAGGGCCAGGGAUGCACAGACCUGGUCAAUGGAAUUCUCGGGUGCCAA | 1.45 |
| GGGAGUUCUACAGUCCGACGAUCUGUAGAUUGGUGUGAAUUGCUAAGGGAAAAACCUUAUGCAGAGAAAAGUUUUUGACUGGAAAUACACUGUUUUGCAUCAAGCUGGAGUACUGGAUGGAAAACUCUACAAUUGGAAUUCUCGGGUGCCAA | 1.37 |
| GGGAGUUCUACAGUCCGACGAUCACAGAGUGAAGCCCCUGCCCUGGACCCCUGCUCCCUUCUACCCUUGAGGGCCACCAAUGGAAGAGCCCGCCCUUCAUUCUGCAGCUCCUGCGGCCAGGCUGAGCUCUGCCUGGAAUUCUCGGGUGCCAA | 0.47 |
| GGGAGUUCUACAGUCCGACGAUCGCAGCCCGCCUUGUGCCUUAGCCCCGCCCAAGCCACCAGGGAGCCAAUCUCAGCCCUCCACGCCAAGGAGCCUUGCCCACCAGCCAAUCAAUGUUCGUCUCUGCCCUGAUUGGAAUUCUCGGGUGCCAA | 0.583 |

Block 2
Target: Histone acetyltransferase KAT6A, winged helix 1, GST fusion (KAT6A, Homo sapiens, UniProt Q92794, residues 1-85)
Technique: protein binding microarray
Form: double-stranded DNA, one strand shown
Medium: in vitro
Concentration: not given
Notes: 8-mer, flanks averaged, mean of 2 arrays, mostly near background
Relative to: not given
Reading: higher = stronger binding
Residues (chain): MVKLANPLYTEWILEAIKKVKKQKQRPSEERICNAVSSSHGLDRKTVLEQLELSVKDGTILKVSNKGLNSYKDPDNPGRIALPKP
| Oligonucleotide | E-score |
| --- | --- |
| ACAGCCGA | 0.0439 |
| GGTTGCGA | -0.0253 |
| CAGACCTC | 0.00405 |
| GAGGGAGA | -0.283 |
| AACAAGAG | -0.215 |
| AGCAATCC | -0.099 |
| GACTCTCC | -0.105 |
| CCTTAACA | -0.0591 |
| ACGCCTAA | -0.041 |
| AGACATGA | -0.105 |
| AAAGGTAC | -0.152 |
| GGTAAAAA | 0.0444 |
| CATGAATG | -0.0791 |
| ATACGGAC | 0.141 |
| TCAGGACA | -0.273 |
| AACCTTAT | -0.08 |
| ATGGTAAT | -0.124 |
| CCCGCTGA | 0.256 |
| CCGACCGG | 0.375 |
| ATTGCAAG | -0.251 |
| TCATTGGA | -0.144 |
| CAATTCCG | 0.215 |
| CTTGACCC | 0.0903 |
| AACCCATA | -0.188 |
| CATTAAAC | -0.112 |

Block 3
Target: Interferon regulatory factor 3, full length, phosphomimetic (IRF3, Homo sapiens, UniProt Q14653, residues 1-427, S386D/S396D/S398D/S402D/T404D/S405D)
Technique: protein-binding microarray
Form: double-stranded DNA, one strand shown
Medium: in vitro
Concentration: 2540 nM top
Notes: 60-bp whole probe
Together with: salmon DNA 0.4 mg/ml
Relative to: random background probes
Reading: higher = stronger binding
Shared flanks, not repeated: GCCTAGCAC … GTCTTGATTCGCTTGACGCTGCTG
Residues (chain): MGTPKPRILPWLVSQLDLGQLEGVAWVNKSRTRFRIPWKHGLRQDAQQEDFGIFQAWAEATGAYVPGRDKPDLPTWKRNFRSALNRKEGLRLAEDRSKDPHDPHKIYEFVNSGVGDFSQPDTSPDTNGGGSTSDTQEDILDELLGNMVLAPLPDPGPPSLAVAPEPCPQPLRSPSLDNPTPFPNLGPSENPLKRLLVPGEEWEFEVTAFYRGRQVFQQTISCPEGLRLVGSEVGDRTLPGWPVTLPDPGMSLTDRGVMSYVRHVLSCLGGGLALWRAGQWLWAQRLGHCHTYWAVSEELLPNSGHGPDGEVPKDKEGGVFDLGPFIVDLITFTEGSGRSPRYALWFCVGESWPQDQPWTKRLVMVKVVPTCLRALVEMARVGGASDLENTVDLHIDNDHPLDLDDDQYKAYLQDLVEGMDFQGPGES
| Oligonucleotide | fitted relative affinity [z-score] |
| --- | --- |
| TTAGGACTGGTTATCGGTTAGTGCTAG | 0.2 |
| TCATCAATCATTTTAGTACTGTGCTAG | 0.547 |
| TTAGGATCCGGTTTCGGTTAGTGCTAG | 6.27 |
| GACCGTATCCTTCTCCTGACGTGCTAG | 6.51 |
| GACGGACTGCTTCTCCTGTCGTGCTAG | 0.0413 |
| GACGGTATCGCCACTGGGGACGTGCTA | 0.406 |
| GACGAACTGAGTCTCGAAACGTGCTAG | -0.0279 |
| TCACCACTCCAGTTCTGACTGTGCTAG | 0.292 |
| GACGGTATCGGACTGGGCACGTGCTAG | 1.49 |
| TTAGGTTTCTTTTTCCTTTAGTGCTAG | 5.88 |
| GACGGTTTCGGGTTTAGGGACGTGCTA | 5.73 |
| GAAGGACTGGACTATCGGGACGTGCTA | -0.642 |
| GGCGATTCCAGTTTCGAGACGTGCTAG | 2.96 |
| AACGGTCTCGGACTGGGGACGTGCTAG | -0.0328 |
| GACGGTCTCGGTCACGGGACGTGCTAG | 0.21 |
| TTTTTTTTTTTTTTTGTATTGTGCTAG | 1.58 |
| ATCTGCAGCTGACTACACACGTGCTAG | 0.0156 |
| TCACCTTTCGGAATACCACTGTGCTAG | 3.72 |
| TTCTACTTCTGTTTTTGCTTGTGCTAG | 1.99 |
| TCAGATATCGGGTATCGATTAGTGCTA | 0.721 |
| TCAGTCTTCCCTTTTAAACTGTGCTAG | 3.31 |
| GCTCATTTTTTTTGCAAGCTGTGCTAG | 1.05 |
| TTAGGTTTCGGTTCCGGTTAGTGCTAG | 10.4 |
| TCAGTCCTGGCTTTGACACTGTGCTAG | -0.458 |
| TCACCTCACAGTTTGTAACTGTGCTAG | 0.292 |

Block 4
Target: RING finger protein unkempt homolog, zinc fingers 1-6, GST-SBP tag (UNK, Homo sapiens, UniProt Q9C0B0, residues 30-357)
Sequence of UniProt Q9C0B0 (30-357, looked up): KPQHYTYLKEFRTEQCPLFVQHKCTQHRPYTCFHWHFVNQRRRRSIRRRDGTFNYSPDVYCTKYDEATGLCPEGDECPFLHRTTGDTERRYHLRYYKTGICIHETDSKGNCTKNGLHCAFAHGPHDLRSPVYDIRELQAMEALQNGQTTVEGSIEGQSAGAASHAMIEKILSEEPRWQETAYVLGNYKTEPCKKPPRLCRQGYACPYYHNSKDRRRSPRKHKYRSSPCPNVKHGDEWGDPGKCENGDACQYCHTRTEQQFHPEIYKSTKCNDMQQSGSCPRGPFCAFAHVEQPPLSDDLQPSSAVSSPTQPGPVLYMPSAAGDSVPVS
Technique: RNA Bind-n-Seq
Form: RNA
Medium: in vitro
Concentration: not given
Notes: RNA with constant flanks, human and mouse sites, ends assumed
Relative to: input RNA pool
Reading: higher = stronger binding
| Oligonucleotide | bound/input enrichment |
| --- | --- |
| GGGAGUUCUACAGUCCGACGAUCGGAAGUGGAAGAUCCUGUGGAUUCGGAUGGAGAAGUCCUGGGCUUUGAGAACCUCGUCUUUAGCAUUUUUGAGUUUGUCCAUGCCCUACUGGAGAACAGCAAGUUCAAAAGCACCGUUAACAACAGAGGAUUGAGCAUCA | 0.542 ratio |
| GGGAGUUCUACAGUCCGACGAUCGAGUGCCCUGUGUUUACACCGCCCGGAGGAGAGACGCUGGACCAGGUGAAAAUGCGUGGAAUAGACUUUUUUGAAUUUCUUUGUCAACUAAUCCUGAAAGAAGCGGAUCAAAAAGAACAGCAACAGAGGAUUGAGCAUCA | 0.431 ratio |
| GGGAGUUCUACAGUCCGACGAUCCAAACAUUACAAGCCUAAAAAGAGGUUUACCAGCACUAAGUGUUUUGCCUUCAUGGAGAUGGAUGAAAUUAAACCUGGGCCAAUCGUAAUAGAACUAUACAAGAAACCCACUGACUUUAACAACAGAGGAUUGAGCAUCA | 0.25 ratio |
| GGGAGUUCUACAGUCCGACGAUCCCACAGACUUAUAAAGAACAUUUAGAAGGACAGAAACAUAAAAAAAAAGAAGCUGCAUUGAAAGCCUCACAAAAUACCAGCAGCAGCAACAGUUCUACUCGUGGGACUCAAAAUCAGCUACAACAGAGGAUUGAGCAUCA | 1.02 ratio |
| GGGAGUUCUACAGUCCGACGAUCAGAAACAACAGUGGAGAUAUUCAAUAAGCUCAACCUUGAACAUAUUGCUACCAGUAGUGCAGUUUCAAAGGAACUCACCAGACUUUUGAAAAUACCAGUUGACACUUACAACAAUAUUUUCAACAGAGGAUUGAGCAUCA | 0.133 ratio |
| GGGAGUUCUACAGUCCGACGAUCUACUGGAGGUCACUAGUUUUGUGAAGAGAUAUAGAACUUCUGGUUGAUGCUUCCUAGCGUUUAGGAUACGAGUUAUUGCACUCUACUUCCUAGCCUCUACUUUUAACUUGUAAGGCCUGCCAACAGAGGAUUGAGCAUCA | 0.177 ratio |
| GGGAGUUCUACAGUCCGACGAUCUAUAUCCAGAGCUUCCGAGACCGGCAGACCGGGAGCUCCCUGAGCUCCUUCAUGGCCUCACCCACAGAUGCGGACUAUGAGUAUGGGUCCCGGGGACCUCUGACAGCCUGCUCAGGCCCCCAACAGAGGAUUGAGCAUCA | 0.189 ratio |
| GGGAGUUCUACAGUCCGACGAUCAAUAGUGGAGAAGAAUUAGAAUCCUACAAGGGACACUUUGGUCCUAUUCACUGUGUGAGAUUUAGUCCUGAUGGAGAACUCUAUGCCAGUGGUUCAGAAGAUGGAACAUUGAGACUAUGGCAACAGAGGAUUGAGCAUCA | 1.11 ratio |
| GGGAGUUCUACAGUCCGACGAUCUUCCGAAGCACUCCCAUUUGUCUCGUCCCGGCCUGGCCAGAUAUUUCCUCUGAAUUUUUUUUUUUUUUUUCAUUAAAAGACACCCAUGUGCGAUGAAACUUUCUAAAAAUCUGUCCUGUGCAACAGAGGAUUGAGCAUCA | 0.394 ratio |
| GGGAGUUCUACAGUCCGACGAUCAUUUUCUUUAUGUGUGAAGACACAAAGUAUGGGGGAAGACAGCAAUCAAAACUAACUUUUUGUAGAUAGCCAUUUCAUUUCUUUAAACUGUUUCAACGCCAAUAUGUAUUCUACAAAAGACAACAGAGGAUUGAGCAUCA | 1.46 ratio |
| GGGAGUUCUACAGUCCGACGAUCGAUGGCCUUACUAAGUUUUUUACACCAUCACCUGAUGGUCGCAGAUCACGAGGUGAAAUUAUAGACUUUUCAAAGCACUAUCGUCCAAGGAAAAAGGUCUCUCAGAAACAGUCAUGCACUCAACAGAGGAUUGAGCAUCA | 0.107 ratio |

Excerpt of the above (block 3):
| Oligonucleotide | fitted relative affinity [z-score] |
| --- | --- |
| TTAGGATCCGGTTTCGGTTAGTGCTAG | 6.27 |
| GACCGTATCCTTCTCCTGACGTGCTAG | 6.51 |
| GACGGACTGCTTCTCCTGTCGTGCTAG | 0.0413 |
| GACGGTATCGCCACTGGGGACGTGCTA | 0.406 |
| GACGAACTGAGTCTCGAAACGTGCTAG | -0.0279 |
| TCACCACTCCAGTTCTGACTGTGCTAG | 0.292 |
| GACGGTATCGGACTGGGCACGTGCTAG | 1.49 |
| TTAGGTTTCTTTTTCCTTTAGTGCTAG | 5.88 |
| GACGGTTTCGGGTTTAGGGACGTGCTA | 5.73 |
| GAAGGACTGGACTATCGGGACGTGCTA | -0.642 |
| GGCGATTCCAGTTTCGAGACGTGCTAG | 2.96 |
